Published values gathered from unrelated publications.
Compare with care: the assays were run in different laboratories. Numbers after ± are the reported error.
USP51 ZnF-UBD domain: Ubiquitin carboxyl-terminal hydrolase 51, ZnF-UBD domain (USP51, Homo sapiens, UniProt Q70EK9)
UniProt Q70EK9, sequence (whole entry, looked up): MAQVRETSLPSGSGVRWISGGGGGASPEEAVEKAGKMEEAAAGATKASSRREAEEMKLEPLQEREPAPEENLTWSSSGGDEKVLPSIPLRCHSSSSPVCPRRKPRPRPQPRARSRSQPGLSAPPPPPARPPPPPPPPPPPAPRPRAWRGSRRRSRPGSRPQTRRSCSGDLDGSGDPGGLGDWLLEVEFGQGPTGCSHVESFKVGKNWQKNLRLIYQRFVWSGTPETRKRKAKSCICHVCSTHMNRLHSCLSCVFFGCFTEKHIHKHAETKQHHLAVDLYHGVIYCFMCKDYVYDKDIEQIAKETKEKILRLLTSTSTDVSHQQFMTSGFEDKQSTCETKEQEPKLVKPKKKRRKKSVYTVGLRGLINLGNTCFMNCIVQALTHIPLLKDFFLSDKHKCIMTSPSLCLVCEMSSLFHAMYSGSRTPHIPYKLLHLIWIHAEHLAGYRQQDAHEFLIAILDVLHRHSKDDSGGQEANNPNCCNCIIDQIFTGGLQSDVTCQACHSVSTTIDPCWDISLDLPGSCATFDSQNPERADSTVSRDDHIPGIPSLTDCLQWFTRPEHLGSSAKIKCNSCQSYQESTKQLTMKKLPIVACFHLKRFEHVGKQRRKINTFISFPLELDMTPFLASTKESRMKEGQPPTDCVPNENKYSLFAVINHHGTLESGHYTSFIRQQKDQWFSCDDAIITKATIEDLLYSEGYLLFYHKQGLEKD
CDK9: Cyclin-dependent kinase 9 (CDK9, Homo sapiens, UniProt P50750)
UniProt P50750, sequence (whole entry, looked up): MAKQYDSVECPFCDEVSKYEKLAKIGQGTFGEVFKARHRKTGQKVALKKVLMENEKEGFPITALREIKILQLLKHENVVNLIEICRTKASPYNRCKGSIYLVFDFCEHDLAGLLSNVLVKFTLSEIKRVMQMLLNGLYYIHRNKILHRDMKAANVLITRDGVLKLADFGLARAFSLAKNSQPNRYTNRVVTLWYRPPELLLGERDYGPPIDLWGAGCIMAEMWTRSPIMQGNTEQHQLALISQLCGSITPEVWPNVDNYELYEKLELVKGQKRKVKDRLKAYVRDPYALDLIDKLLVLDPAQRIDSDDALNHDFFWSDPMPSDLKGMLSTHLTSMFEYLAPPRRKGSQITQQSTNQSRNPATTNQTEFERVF
Kir3.1/Kir3.2: Kir3.1/Kir3.2 (Homo sapiens, UniProt P48051+P48549)
UniProt P48051, sequence (whole entry, looked up): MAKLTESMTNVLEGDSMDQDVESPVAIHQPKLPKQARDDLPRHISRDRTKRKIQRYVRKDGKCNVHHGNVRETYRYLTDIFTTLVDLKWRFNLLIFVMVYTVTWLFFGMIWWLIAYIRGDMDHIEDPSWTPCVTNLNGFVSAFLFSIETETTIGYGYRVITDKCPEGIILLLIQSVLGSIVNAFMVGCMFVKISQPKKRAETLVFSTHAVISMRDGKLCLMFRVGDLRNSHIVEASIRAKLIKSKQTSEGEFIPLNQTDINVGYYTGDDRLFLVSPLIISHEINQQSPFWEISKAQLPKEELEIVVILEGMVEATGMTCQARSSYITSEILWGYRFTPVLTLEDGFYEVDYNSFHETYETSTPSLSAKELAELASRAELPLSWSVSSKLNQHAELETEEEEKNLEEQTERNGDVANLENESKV
UniProt P48549, sequence (whole entry, looked up): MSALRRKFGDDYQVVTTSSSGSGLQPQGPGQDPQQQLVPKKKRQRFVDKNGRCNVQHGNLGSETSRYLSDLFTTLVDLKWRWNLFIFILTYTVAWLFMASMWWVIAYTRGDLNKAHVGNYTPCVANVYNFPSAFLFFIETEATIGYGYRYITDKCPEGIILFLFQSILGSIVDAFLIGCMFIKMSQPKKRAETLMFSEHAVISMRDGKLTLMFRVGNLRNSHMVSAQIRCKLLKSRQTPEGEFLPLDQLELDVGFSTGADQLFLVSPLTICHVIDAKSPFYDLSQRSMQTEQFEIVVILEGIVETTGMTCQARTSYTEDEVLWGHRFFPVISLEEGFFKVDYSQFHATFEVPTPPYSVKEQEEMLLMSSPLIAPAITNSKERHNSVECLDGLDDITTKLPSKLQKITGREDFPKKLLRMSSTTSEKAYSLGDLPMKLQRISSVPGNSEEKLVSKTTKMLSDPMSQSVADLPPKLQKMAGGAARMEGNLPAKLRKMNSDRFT
GAP50: Glideosome-associated protein 50 (GAP50, Plasmodium falciparum, UniProt Q8I2X3)
UniProt Q8I2X3, sequence (whole entry, looked up): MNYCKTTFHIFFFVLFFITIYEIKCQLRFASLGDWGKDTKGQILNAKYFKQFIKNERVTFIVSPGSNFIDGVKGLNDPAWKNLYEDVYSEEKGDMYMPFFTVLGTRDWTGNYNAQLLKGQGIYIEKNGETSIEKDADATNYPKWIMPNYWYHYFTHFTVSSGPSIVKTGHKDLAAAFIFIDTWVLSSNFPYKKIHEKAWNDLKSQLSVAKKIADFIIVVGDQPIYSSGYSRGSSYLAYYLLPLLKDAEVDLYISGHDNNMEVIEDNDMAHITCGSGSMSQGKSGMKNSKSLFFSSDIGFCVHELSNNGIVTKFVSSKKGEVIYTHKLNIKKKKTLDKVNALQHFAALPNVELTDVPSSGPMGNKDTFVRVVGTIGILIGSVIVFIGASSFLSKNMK
HDAC10: Polyamine deacetylase HDAC10 (HDAC10, Homo sapiens, UniProt Q969S8)
UniProt P10636, sequence (whole entry, looked up): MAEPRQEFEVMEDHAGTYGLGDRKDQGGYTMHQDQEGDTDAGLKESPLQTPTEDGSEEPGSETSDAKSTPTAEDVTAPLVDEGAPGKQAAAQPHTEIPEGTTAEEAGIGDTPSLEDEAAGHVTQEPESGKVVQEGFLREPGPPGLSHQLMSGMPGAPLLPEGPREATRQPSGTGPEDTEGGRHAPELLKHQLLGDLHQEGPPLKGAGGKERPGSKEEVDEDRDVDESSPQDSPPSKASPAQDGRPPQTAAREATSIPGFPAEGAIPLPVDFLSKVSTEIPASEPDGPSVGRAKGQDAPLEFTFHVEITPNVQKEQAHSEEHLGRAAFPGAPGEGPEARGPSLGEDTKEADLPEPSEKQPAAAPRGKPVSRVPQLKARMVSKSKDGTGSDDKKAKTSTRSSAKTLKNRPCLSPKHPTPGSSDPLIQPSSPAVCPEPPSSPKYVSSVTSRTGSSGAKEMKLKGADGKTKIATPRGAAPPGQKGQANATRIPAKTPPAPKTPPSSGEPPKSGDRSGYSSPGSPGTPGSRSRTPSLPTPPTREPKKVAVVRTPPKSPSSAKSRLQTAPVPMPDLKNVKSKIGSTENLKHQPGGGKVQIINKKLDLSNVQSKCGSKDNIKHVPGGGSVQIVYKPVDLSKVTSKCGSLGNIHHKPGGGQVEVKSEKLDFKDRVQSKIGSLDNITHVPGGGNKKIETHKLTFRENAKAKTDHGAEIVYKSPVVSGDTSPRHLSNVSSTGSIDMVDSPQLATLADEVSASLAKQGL
UniProt Q969S8, sequence (whole entry, looked up): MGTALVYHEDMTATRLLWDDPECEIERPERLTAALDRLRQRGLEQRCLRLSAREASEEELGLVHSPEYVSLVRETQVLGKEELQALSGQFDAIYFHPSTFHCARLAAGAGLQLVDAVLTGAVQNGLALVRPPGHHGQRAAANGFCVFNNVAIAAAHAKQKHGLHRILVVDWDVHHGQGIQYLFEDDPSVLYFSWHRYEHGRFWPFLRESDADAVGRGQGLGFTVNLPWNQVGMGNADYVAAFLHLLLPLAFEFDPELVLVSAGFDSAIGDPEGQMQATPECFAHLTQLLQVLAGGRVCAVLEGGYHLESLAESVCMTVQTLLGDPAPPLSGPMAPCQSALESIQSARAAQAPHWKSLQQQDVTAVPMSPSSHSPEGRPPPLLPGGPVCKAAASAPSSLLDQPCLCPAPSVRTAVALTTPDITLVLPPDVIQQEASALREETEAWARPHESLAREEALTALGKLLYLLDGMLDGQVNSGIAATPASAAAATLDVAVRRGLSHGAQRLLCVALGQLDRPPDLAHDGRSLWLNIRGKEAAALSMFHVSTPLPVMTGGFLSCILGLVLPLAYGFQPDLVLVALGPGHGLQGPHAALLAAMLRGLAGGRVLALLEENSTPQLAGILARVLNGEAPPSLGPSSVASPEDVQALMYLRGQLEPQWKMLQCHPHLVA
UniProt P05412, sequence (whole entry, looked up): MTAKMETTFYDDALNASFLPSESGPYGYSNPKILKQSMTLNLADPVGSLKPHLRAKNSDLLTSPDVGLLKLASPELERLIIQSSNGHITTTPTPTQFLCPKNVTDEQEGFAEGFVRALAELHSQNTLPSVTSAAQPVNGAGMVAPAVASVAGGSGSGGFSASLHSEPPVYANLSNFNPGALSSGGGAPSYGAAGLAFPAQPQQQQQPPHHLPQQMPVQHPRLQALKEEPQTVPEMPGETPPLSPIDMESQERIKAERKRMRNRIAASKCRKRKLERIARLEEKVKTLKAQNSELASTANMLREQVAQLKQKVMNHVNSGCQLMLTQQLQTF
UniProt P00388, sequence (whole entry, unmodified, looked up): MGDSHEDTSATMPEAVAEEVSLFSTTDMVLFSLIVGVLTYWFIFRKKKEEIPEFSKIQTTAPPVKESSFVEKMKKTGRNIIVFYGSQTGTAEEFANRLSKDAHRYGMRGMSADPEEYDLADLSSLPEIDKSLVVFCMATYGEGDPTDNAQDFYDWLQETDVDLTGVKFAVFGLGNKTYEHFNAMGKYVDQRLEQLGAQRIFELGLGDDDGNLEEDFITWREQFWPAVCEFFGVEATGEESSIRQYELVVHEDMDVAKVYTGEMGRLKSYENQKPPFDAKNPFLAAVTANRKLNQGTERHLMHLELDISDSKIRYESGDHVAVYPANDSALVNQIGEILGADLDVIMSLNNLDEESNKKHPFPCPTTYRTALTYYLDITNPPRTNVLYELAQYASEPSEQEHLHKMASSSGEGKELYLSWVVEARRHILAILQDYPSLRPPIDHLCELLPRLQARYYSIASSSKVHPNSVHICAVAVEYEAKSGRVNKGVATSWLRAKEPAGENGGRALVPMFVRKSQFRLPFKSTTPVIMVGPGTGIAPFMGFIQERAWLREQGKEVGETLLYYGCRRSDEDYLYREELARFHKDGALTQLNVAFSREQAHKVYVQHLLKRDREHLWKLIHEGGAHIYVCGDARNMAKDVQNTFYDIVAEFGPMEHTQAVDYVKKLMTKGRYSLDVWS

| SMILES | target | assay | test system | setting | scale | quantity | result |
| --- | --- | --- | --- | --- | --- | --- | --- |
| O=C(O)Cn1ccc2ccccc2c1=O | USP51 ZnF-UBD domain | – | – | – | – | Kd | > 1000 µM |
| CC(C)(C)c1cnc(CSc2cnc(NC(=O)C3CCN(C(=O)CCCCCCCN4Cc5cc6c(cc5C4)C(=O)N(C4CCC(=O)NC4=O)C6=O)CC3)s2)o1 (stereo not drawn) | CDK9 | degrader, Western blot | SK-UT-1 uterine leiomyosarcoma | 6 h | – | DC50 | < 0.01 µM |
| CCCCCC/C=C\CCCCCCCCCCCCCCC | uncharacterized protein (Drosophila suzukii, UniProt A0AB39ZGK5) | binding, bis-ANS competition fluorescence | – | pH 7.4, together with: bis-ANS | – | IC50 | 33.8 µM |
| NS(=O)(=O)c1ccc(NCC(=O)O)cc1 | USP51 ZnF-UBD domain | – | – | – | – | Kd | > 1000 µM |
| O=C(Nc1ccc2ccccc2n1)Nc1cccs1 | 3-oxoacyl-[acyl-carrier-protein] reductase FabG (fabG, Pseudomonas aeruginosa, UniProt O54438) | enzyme activity, inhibitor, NADPH fluorescence | – | reverse reaction, geometric mean, together with: 3-OH-decanoyl-NAC, NADP | – | IC50 | 1.6 µM |
| NC(=O)c1ccc[n+]([C@@H]2O[C@H](COP(=O)(O)OP(=O)(O)OC[C@H]3O[C@@H](n4cnc5c(N)ncnc54)[C@H](OP(=O)(O)O)[C@@H]3O)[C@@H](O)[C@H]2O)c1 | NADPH--cytochrome P450 reductase (Rattus norvegicus, UniProt P00388, del2-56/del675-676) | cytochrome c reduction, inhibitor | – | together with: NADPH | – | Ki | 71.7 ± 7.1 µM |
| CN1CCN(c2ccc(Nc3ncc4cc(C#N)c(=O)n(C5CCCC5)c4n3)cc2)CC1 | MAP4K2 (Homo sapiens, UniProt Q12851) | – | – | – | – | IC50 | 0.688 µM |
| CC[C@@H]1[C@H](F)C(=O)N[C@@H]1COc1nccc2cc(C(N)=O)c(OC)cc12 | MAP3K21 (Homo sapiens, UniProt Q5TCX8) | ATP probe binding, KiNativ profiling, refers to: MLK4 Lys2 probe site | THP-1 cell lysate | – | – | IC50 | > 5 µM |
| CCc1cc(NC(=O)COc2ccc(Cl)cc2Cl)n(C2CCOCC2)n1 | Kir3.1/Kir3.2 | activator, thallium flux | HEK293 | – | – | EC50 | 0.097 µM |
| O=C(O)CNC(=O)c1ccc(S(=O)(=O)N2CCC(n3c(=O)oc4ccccc43)CC2)cc1 | USP51 ZnF-UBD domain | – | – | – | – | Kd | > 1000 µM |
| O=C(COc1cccc(Cl)c1Cl)Nc1cc(C2CC2)nn1C1CCC(F)(F)CC1 | Kir3.1/Kir3.2 | activator, thallium flux | HEK293 | – | – | EC50 | 0.294 µM |
| CCCCC[C@H](O)/C=C/[C@H]1[C@H](O)CC(=O)[C@@H]1C/C=C\CCCC(=O)O | PTGER1 (Homo sapiens, UniProt P34995, I352A) | IP1 accumulation, agonist | AD293 | EP1 I352A mutant | – | EC50 | 0.00407 µM |
| COc1ccc(Oc2ccc([C@@H](C)N(C)c3ncc4c(N)nc(N)nc4n3)cc2)cc1 | GAP50 | binding, surface plasmon resonance | – | 1:1 binding model | – | Kd | 577 µM |
| O=C(CNc1cccc2c1C(=O)N(C1CCC(=O)NC1=O)C2=O)NCCCCCCN1CCc2c(c3ccccc3n2Cc2ccc(C(=O)NO)cc2)C1 (stereo not drawn) | HDAC10 | degrader, western blot | MM1.S cells | 24 h | – | DC50 | 0.029 ± 0.0011 µM |
| CC(C)(C)c1cnc(CSc2cnc(NC(=O)C3CCN(C(=O)COCCOCCN4Cc5cc6c(cc5C4)C(=O)N(C4CCC(=O)NC4=O)C6=O)CC3)s2)o1 (stereo not drawn) | CDK9 | degrader, Western blot | TC-71 | – | – | DC50 | 0.0161 ± 0.0049 µM |
| CNc1nnc(Sc2cnn(-c3ccccc3)c(=O)c2Cl)s1 | GAP50 | binding, surface plasmon resonance | – | 1:1 binding model | – | Kd | 84.4 µM |
| O=C(O)CCc1cnccn1 | USP51 ZnF-UBD domain | – | – | – | – | Kd | > 1000 µM |
| CC(=O)C(C)O (stereo not drawn) | uncharacterized protein (Drosophila suzukii, UniProt A0AB39ZGK5) | binding, bis-ANS competition fluorescence | – | pH 7.4, together with: bis-ANS | – | IC50 | > 50 µM |
| CC(C)(C)c1cnc(CSc2cnc(NC(=O)C3CCN(C(=O)CCCCCCCCCN4Cc5cc6c(cc5C4)C(=O)N(C4CCC(=O)NC4=O)C6=O)CC3)s2)o1 (stereo not drawn) | CDK9 | degrader, Western blot | TC-71 | – | – | DC50 | 0.0102 ± 0.0045 µM |
| CCOC(C)=O | uncharacterized protein (Drosophila suzukii, UniProt A0AB39ZCT4) | binding, bis-ANS competition fluorescence | – | pH 7.4, together with: bis-ANS | – | IC50 | > 50 µM |
| CCc1cc(NC(=O)COc2cccc(Cl)c2Cl)n(C2CCOCC2)n1 | Kir3.1/Kir3.2 | activator, thallium flux | HEK293 | – | – | EC50 | 0.19 µM |
| NC(=O)[C@H]1CCCN1C(=O)CCC(=O)O | USP51 ZnF-UBD domain | – | – | – | – | Kd | > 1000 µM |
| COc1ccc2nc(/C=C/c3ccc(N(C)C)cc3)sc2c1 | Microtubule-associated protein tau, paired helical filaments (MAPT, Homo sapiens, UniProt P10636) | binding | authentic PHF 1 µM | together with: thioflavin S | – | AC50 | > 10 µM |

| SMILES | target | assay | test system | setting | scale | quantity | result |
| --- | --- | --- | --- | --- | --- | --- | --- |
| COc1cc[nH]c1/C=C1\C(=O)Nc2ccc([N+](=O)[O-])c(N3CC[C@@H](O)C3)c21 | CMGC kinase panel | enzyme activity, KinaseProfiler | – | 1 µM | relative to: DMSO | remaining activity | < 50% |
| CC(=O)Nc1ccc(-c2noc(C[C@H]3CCCN(Cc4cccc(F)c4C)C3)n2)cc1 | GAP50 | binding, surface plasmon resonance | – | 1:1 binding model | – | Kd | 50.9 µM |
| CCCCCCCCCCCCCC | uncharacterized protein (Bradysia odoriphaga, UniProt A0A2S0X9G4) | binding, competitive fluorescence displacement | – | – | – | Ki | > 50 µM |
| CCc1cc(NC(=O)COc2ccc(C(F)(F)F)cc2C(F)(F)F)n(CC(F)(F)F)n1 | Kir3.1/Kir3.2 | activator, thallium flux | HEK293 | – | – | EC50 | 0.89 µM |
| C=C1CCC2CC1C2(C)C (stereo not drawn) | uncharacterized protein (Bradysia odoriphaga, UniProt A0A2S0X9G4) | binding, competitive fluorescence displacement | – | – | – | Ki | > 50 µM |
| O=C(O)c1cc(-c2ccc(Br)cc2)nc2ccc(Cl)cc12 | GAP50 | binding, surface plasmon resonance | – | 1:1 binding model | – | Kd | 9.3 µM |
| COc1ccc(/C=C/c2ccc(/C=C/c3ccc(OC)c(C(=O)O)c3)c(I)c2)cc1C(=O)O | Microtubule-associated protein tau, fibrils (MAPT, Homo sapiens, UniProt P10636) | binding | synthetic 2N4R tau filaments 1 µM | together with: thioflavin S | – | AC50 | > 10 µM |
| O=C(Nc1ccc(-c2ccccc2)cc1)C1=C(O)C(Cc2ccccc2)OC1=O (stereo not drawn) | GAP50 | binding, surface plasmon resonance | – | 1:1 binding model | – | Kd | 38.5 µM |
| O=C(COP(=O)(O)O)[C@@H](O)[C@H](O)[C@H](O)COP(=O)(O)O | Pyruvate kinase PKM (PKM, Homo sapiens, UniProt P14618) | enzyme activity, activator | A549 cell lysate | together with: 0.2 mM PEP, 2 mM ADP | – | AC50 | 0.0487 ± 0.003 µM |
| O=C(O)CNC(=O)c1ccc(C(=O)N2CCC(c3ccc(Cl)cc3)CC2)cn1 | USP51 ZnF-UBD domain | – | – | – | – | Kd | > 1000 µM |
| CCc1cc(NC(=O)COc2ccc(Cl)cc2Cl)n(C2CCC(F)(F)CC2)n1 | Kir3.1/Kir3.2 | activator, thallium flux | HEK293 | – | – | EC50 | 0.025 µM |
| CC(C)=CCCC(C)CCO (stereo not drawn) | uncharacterized protein (Bradysia odoriphaga, UniProt A0A2S0X9G4) | binding, competitive fluorescence displacement | – | – | – | Ki | > 50 µM |
| O=C(O)CCC(=O)Nc1ccccc1 | USP51 ZnF-UBD domain | – | – | – | – | Kd | > 1000 µM |
| O=C(COc1cccc(Cl)c1Cl)Nc1cc(C2CCC2)nn1C1CCOCC1 | Kir3.1/Kir3.2 | activator | – | – | – | EC50 | 1.2 µM |
| O=C(c1ccccc1)N1CCN(c2ccccc2NC(=O)C(Cl)(Cl)Cl)CC1 | GAP50 | binding, surface plasmon resonance | – | 1:1 binding model | – | Kd | 19.4 µM |
| CC(C)(C)c1cnc(CSc2cnc(NC(=O)C3CCN(C(=O)CCCCCCN4Cc5cc6c(cc5C4)C(=O)N(C4CCC(=O)NC4=O)C6=O)CC3)s2)o1 (stereo not drawn) | CDK9 | degrader, Western blot | U-87 MG glioblastoma | 6 h | – | DC50 | < 0.01 µM |
| C[C@H]1[C@@H](c2cccc(C(F)(F)F)c2)OC(=O)N1C(=O)NCc1cncc2ccccc12 | GAP50 | binding, surface plasmon resonance | – | 1:1 binding model | – | Kd | 55.3 µM |
| Cc1ccc(C(=O)O)cc1S(=O)(=O)Nc1cccc(C(=O)CCC(=O)O)c1 | USP51 ZnF-UBD domain | – | – | – | – | Kd | > 1000 µM |
| O=S(=O)(Nc1ccccc1)c1ccc(NC(=S)Nc2ccccc2)cc1 | GAP50 | binding, surface plasmon resonance | – | 1:1 binding model | – | Kd | 2.61 µM |
| O=C(CCc1cc(C(=O)c2ccc(OC3CCCC3)cc2O)ccc1OCc1ccc2c(O)noc2c1)NCCOCCOCCOCCOCCOCCOCCNc1cccc2c1C(=O)N(C1CCC(=O)NC1=O)C2=O (stereo not drawn) | JUN/FOSL1 (Homo sapiens, UniProt P05412+P15407) | degrader, western blot | UMSCC1 cells | – | – | DC50 | 4.9 µM |
| O=C(COc1cc(Cl)ccc1Cl)Nc1cc(C2CC2)nn1CC(F)(F)F | Kir3.1/Kir3.2 | activator, thallium flux | HEK293 | – | – | EC50 | 1.21 µM |
| O=C(COc1ccc(C2CCC(=O)NC2=O)cc1)NCCCCCCN1CCc2c(c3ccccc3n2Cc2ccc(C(=O)NO)cc2)C1 (stereo not drawn) | HDAC10 | degrader, western blot | MM1.S cells | 24 h | – | DC50 | 0.0017 ± 0.0009 µM |

Excerpt of the above:
| SMILES | target | assay | test system | setting | scale | quantity | result |
| --- | --- | --- | --- | --- | --- | --- | --- |
| C[C@H]1[C@@H](c2cccc(C(F)(F)F)c2)OC(=O)N1C(=O)NCc1cncc2ccccc12 | GAP50 | binding, surface plasmon resonance | – | 1:1 binding model | – | Kd | 55.3 µM |
| Cc1ccc(C(=O)O)cc1S(=O)(=O)Nc1cccc(C(=O)CCC(=O)O)c1 | USP51 ZnF-UBD domain | – | – | – | – | Kd | > 1000 µM |
| O=S(=O)(Nc1ccccc1)c1ccc(NC(=S)Nc2ccccc2)cc1 | GAP50 | binding, surface plasmon resonance | – | 1:1 binding model | – | Kd | 2.61 µM |
| O=C(CCc1cc(C(=O)c2ccc(OC3CCCC3)cc2O)ccc1OCc1ccc2c(O)noc2c1)NCCOCCOCCOCCOCCOCCOCCNc1cccc2c1C(=O)N(C1CCC(=O)NC1=O)C2=O (stereo not drawn) | JUN/FOSL1 (Homo sapiens, UniProt P05412+P15407) | degrader, western blot | UMSCC1 cells | – | – | DC50 | 4.9 µM |
| O=C(COc1cc(Cl)ccc1Cl)Nc1cc(C2CC2)nn1CC(F)(F)F | Kir3.1/Kir3.2 | activator, thallium flux | HEK293 | – | – | EC50 | 1.21 µM |
| O=C(COc1ccc(C2CCC(=O)NC2=O)cc1)NCCCCCCN1CCc2c(c3ccccc3n2Cc2ccc(C(=O)NO)cc2)C1 (stereo not drawn) | HDAC10 | degrader, western blot | MM1.S cells | 24 h | – | DC50 | 0.0017 ± 0.0009 µM |
